Published values pooled from the literature.
Each line is one published result; not all experiments were run side by side. ± marks the error that the study gave.
LYZ: Lysozyme C (LYZ, Gallus gallus, UniProt P00698)
UniProt P00698, sequence (whole entry, looked up): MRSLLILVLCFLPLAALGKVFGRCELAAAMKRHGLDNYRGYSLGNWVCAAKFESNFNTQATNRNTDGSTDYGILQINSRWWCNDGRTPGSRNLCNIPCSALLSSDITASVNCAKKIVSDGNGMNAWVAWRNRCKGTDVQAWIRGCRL
HDAC6 ZnF-UBD domain: Protein deacetylase HDAC6, ZnF-UBD domain (HDAC6, Homo sapiens, UniProt Q9UBN7)
UniProt Q9UBN7, sequence (whole entry, looked up): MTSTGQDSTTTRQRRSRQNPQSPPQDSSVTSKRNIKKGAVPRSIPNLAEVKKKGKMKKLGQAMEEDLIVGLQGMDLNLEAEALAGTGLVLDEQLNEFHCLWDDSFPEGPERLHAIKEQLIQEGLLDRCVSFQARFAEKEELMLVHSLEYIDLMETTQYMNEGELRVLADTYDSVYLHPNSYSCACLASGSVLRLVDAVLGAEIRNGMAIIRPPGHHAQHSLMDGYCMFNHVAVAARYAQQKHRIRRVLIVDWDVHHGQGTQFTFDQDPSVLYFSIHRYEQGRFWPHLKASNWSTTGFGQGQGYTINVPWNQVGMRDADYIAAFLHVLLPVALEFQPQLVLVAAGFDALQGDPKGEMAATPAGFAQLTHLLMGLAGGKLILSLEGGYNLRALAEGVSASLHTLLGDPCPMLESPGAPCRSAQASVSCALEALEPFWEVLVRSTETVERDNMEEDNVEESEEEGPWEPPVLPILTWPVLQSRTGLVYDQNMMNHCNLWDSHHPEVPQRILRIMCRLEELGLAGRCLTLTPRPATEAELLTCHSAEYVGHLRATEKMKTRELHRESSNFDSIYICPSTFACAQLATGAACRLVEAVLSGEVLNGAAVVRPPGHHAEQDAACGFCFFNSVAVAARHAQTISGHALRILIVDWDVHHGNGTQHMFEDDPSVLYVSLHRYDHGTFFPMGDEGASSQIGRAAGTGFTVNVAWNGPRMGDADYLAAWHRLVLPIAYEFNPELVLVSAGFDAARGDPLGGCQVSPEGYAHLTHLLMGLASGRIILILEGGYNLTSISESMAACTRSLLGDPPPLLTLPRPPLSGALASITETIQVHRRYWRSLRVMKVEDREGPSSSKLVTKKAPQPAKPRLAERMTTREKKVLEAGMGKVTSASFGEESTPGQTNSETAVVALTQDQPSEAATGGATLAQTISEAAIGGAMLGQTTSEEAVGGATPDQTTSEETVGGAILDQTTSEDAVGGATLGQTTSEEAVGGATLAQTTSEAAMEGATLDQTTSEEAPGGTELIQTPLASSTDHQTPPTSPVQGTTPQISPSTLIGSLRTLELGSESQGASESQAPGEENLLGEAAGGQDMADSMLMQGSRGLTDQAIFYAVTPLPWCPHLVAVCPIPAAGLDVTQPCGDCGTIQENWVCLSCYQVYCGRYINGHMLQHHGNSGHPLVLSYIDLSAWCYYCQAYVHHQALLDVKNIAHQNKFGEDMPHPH
UniProt Q15464, sequence (whole entry, looked up): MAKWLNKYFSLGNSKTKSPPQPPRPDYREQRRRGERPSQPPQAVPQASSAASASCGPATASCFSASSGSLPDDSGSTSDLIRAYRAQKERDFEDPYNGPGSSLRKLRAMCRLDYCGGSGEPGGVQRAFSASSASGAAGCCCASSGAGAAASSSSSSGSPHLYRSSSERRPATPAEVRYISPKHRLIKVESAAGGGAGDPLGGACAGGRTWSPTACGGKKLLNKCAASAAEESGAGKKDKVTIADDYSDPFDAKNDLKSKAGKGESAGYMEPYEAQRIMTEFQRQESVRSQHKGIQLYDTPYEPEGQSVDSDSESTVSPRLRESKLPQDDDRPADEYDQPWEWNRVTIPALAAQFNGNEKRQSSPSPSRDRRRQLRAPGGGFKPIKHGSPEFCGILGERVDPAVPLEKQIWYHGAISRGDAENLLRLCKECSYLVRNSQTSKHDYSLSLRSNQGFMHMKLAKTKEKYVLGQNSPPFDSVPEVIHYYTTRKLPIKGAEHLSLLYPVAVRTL
UniProt Q92995, sequence (whole entry, looked up): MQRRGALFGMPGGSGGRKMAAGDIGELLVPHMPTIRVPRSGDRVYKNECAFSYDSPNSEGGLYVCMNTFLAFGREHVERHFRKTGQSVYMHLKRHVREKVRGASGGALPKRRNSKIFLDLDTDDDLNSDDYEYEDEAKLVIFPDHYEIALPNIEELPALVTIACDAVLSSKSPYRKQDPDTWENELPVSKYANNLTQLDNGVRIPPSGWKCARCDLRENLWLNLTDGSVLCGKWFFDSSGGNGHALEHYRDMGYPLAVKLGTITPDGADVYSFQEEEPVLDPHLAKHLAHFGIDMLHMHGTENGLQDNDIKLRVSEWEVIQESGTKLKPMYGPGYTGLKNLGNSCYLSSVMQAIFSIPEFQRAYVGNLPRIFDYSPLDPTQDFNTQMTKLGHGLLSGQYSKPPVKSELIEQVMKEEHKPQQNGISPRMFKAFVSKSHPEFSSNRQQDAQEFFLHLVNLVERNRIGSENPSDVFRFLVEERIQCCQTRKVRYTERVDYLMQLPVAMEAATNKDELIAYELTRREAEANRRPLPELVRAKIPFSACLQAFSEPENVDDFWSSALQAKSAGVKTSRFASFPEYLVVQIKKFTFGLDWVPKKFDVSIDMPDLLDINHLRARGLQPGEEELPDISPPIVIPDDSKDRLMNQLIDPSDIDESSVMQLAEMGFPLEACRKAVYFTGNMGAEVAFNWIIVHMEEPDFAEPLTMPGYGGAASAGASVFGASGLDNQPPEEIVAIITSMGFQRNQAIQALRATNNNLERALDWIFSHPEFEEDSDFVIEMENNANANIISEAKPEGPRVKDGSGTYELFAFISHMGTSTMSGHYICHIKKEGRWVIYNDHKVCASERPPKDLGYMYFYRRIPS
UniProt Q9X6J6, sequence (whole entry, looked up): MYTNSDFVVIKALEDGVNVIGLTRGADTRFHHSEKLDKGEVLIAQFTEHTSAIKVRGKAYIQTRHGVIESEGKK
UniProt Q9H093, sequence (whole entry, looked up): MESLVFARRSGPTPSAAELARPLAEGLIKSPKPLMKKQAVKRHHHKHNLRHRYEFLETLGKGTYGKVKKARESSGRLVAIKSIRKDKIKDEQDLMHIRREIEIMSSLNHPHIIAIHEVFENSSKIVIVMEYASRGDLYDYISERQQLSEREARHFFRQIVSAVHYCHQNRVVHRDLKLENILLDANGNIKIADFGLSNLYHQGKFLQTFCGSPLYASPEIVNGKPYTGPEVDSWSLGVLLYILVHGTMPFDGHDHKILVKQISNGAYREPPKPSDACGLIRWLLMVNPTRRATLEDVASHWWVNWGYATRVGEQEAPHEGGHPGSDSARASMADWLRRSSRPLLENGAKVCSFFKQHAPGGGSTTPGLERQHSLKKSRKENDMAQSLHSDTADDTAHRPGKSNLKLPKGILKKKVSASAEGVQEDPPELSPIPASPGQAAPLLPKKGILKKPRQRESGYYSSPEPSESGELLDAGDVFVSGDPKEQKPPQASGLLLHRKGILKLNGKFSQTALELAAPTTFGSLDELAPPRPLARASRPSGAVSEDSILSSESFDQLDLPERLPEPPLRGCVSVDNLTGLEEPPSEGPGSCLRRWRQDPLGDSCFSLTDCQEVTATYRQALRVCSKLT
UniProt P51531, sequence (whole entry, looked up): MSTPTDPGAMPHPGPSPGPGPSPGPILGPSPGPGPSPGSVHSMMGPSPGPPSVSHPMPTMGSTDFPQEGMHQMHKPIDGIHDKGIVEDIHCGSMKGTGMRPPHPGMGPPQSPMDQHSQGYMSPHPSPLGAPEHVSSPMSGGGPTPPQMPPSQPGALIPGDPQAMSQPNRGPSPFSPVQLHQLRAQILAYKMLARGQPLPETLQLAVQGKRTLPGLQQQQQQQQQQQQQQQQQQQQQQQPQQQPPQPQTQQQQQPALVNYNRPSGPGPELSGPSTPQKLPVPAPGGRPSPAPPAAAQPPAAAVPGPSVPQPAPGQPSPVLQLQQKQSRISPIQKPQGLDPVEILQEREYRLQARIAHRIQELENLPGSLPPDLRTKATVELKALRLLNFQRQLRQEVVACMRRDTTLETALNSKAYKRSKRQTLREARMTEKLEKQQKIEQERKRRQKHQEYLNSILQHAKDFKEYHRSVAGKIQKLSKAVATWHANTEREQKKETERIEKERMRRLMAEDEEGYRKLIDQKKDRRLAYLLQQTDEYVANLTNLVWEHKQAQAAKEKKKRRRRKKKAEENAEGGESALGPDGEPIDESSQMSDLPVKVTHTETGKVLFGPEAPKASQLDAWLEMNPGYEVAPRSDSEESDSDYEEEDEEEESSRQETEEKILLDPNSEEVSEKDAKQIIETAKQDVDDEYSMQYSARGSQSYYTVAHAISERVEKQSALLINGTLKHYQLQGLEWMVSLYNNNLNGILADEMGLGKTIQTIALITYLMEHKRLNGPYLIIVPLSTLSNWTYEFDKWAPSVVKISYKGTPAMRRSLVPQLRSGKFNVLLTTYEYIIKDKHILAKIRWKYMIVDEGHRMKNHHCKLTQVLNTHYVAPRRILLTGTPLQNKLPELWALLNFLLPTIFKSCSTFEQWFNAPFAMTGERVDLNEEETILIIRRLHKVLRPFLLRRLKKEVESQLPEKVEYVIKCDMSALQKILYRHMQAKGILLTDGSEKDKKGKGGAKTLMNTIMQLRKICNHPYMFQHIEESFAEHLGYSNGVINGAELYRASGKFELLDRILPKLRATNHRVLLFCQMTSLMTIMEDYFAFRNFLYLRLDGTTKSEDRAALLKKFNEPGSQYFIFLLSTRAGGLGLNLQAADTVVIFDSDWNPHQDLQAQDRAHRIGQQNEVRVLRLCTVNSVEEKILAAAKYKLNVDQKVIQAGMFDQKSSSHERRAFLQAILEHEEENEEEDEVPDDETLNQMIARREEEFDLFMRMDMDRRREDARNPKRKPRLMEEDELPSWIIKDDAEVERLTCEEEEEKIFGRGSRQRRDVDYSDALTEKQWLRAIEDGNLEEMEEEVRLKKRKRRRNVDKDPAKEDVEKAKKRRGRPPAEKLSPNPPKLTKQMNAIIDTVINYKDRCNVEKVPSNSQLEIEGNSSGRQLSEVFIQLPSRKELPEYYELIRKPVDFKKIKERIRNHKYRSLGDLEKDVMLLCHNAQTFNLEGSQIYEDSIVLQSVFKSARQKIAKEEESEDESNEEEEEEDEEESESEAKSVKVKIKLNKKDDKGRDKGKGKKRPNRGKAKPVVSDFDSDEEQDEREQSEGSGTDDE

CC(=O)N[C@H]1[C@H](O[C@H]2[C@H](O)[C@@H](NC(C)=O)C(O)O[C@@H]2CO)O[C@H](CO)[C@@H](O[C@@H]2O[C@H](CO)[C@@H](O)[C@H](O)[C@H]2NC(C)=O)[C@@H]1O (stereo partly drawn)  Kd (LYZ; surface sampling native MS; 100-fold dilution): 15.5 ± 1.2 µM
NC(=O)c1cc(-n2c(CCC(=O)O)nc3ccccc32)cs1  Kd (HDAC6 ZnF-UBD domain): > 1000 µM
Nc1nc2c(ncn2[C@@H]2O[C@H](COP(=O)(O)OP(=O)(O)O)[C@@H](OP(=O)(O)OP(=O)(O)O)[C@H]2O)c(=O)[nH]1  Kd (cadA (Escherichia coli, UniProt P0A9H3); isothermal titration calorimetry): 2.6 µM
Cc1ccc(C(=O)O)cc1S(=O)(=O)Nc1cccc(C(=O)CCC(=O)O)c1  Kd (HDAC6 ZnF-UBD domain): > 1000 µM
Nc1nc2c(ncn2[C@@H]2O[C@H](COP(=O)(O)O)[C@@H](O)[C@H]2O)c(=O)[nH]1  Kd (GUK1 (Homo sapiens, UniProt Q16774, R148A); binding, ITC; 25 °C, together with: GMP): 66 ± 1 µM
Cc1cc(Nc2cc3ncccc3c(N[C@@H]3C[C@H]4CC[C@@H](C3)N4CCC#N)n2)n[nH]1  Kd (NUAK2 (Homo sapiens, UniProt Q9H093); binding, KINOMEscan): 0.02 µM
F[C@@H]1CCN(c2ccc(-c3ccc4sc(-c5cccnc5)cc4n3)cn2)C1  Kd (Alpha-synuclein, aggregates (SNCA, Homo sapiens, UniProt P37840); binding, [3H]compound homologous binding; Parkinson's disease brain homogenate): 0.00185 µM
NC(=O)[C@H]1CCCN1C(=O)CCC(=O)O  Kd (Ubiquitin carboxyl-terminal hydrolase 13, ZnF-UBD domain (USP13, Homo sapiens, UniProt Q92995)): > 1000 µM
N[C@@H](Cc1c[nH]c2ccccc12)C(=O)O  Kd (Transcription attenuation protein MtrB (mtrB, Geobacillus stearothermophilus, UniProt Q9X6J6); isothermal titration calorimetry; 25 °C, one-site model): 0.19 ± 0.02 µM
CC[C@H](C)[C@H](NC(=O)[C@H](CC(C)C)NC(=O)[C@H](Cc1ccc(OP(=O)(O)O)cc1)NC(=O)[C@H](CCC(=O)O)NC(=O)[C@H](CC(=O)O)NC(=O)[C@H](C)NC(=O)[C@H](CC(=O)O)NC(=O)[C@@H](NC(=O)[C@@H](NC(=O)[C@H](CC(=O)O)NC(=O)[C@H](CC(=O)O)NC(=O)[C@H](CCSC)NC(=O)c1ccc2c(c1)C(=O)OC21c2ccc(N(C)C)cc2Oc2cc(N(C)C)ccc21)C(C)C)C(C)C)C(=O)N1CCC[C@H]1C(=O)N[C@@H](CCC(N)=O)C(=O)N[C@@H](CCC(N)=O)C(=O)NCC(=O)N[C@@H](Cc1ccccc1)C(=O)N[C@@H](CC(=O)O)C(=O)O  Kd (SH2 domain-containing adapter protein B, SH2 domain (SHB, Homo sapiens, UniProt Q15464); binding): 1.99 µM
O=C(O)CCC1=Nc2cccc3cccc(c23)N1  Kd (HDAC6 ZnF-UBD domain): > 1000 µM
CC(=O)N[C@H]1[C@H](O[C@H]2[C@H](O)[C@@H](NC(C)=O)C(O)O[C@@H]2CO)O[C@H](CO)[C@@H](O[C@@H]2O[C@H](CO)[C@@H](O)[C@H](O)[C@H]2NC(C)=O)[C@@H]1O (stereo partly drawn)  Kd (LYZ; binding, native nano-ESI MS; pH 7.4, emitter tip 500 nm): 7.9 ± 0.2 µM
O=C(Nc1ccc(O)c(O)c1)c1cc2ccccc2oc1=O  Kd (Alpha-synuclein, monomer (SNCA, Homo sapiens, UniProt P37840); isothermal titration calorimetry): 0.4 µM
O=C(O)CCn1c(=O)oc2ccccc21  Kd (HDAC6 ZnF-UBD domain): > 1000 µM
NCC1CN(c2cc(N3C4CCC3CN(c3cc(-c5ccccc5O)nnc3N)C4)ccn2)C1  Kd (SMARCA2 (Homo sapiens, UniProt P51531); binding, NanoBRET tracer displacement; permeabilized HEK293): 0.0051 ± 0.0013 µM

Some of these lines once more:
O=C(O)CCC1=Nc2cccc3cccc(c23)N1  Kd (HDAC6 ZnF-UBD domain): > 1000 µM
